Published values gathered from unrelated publications.
Every numbered part comes from another study and shows a few of its results, in no order. Changes are numbered by the printed parent chain.

Study 1
Target: Fragile X messenger ribonucleoprotein 1, C-terminal low-complexity region (Fmr1, Mus musculus, UniProt P35922)
Method: RNA Bind-n-Seq
Form: RNA
Sample: in vitro
Tested at: 200 nM
Setting: whole 134-nt RNA, ends assumed
Together with: 150 mM KCl
Relative to: input library
Reading: higher = stronger binding
Shared flanks, not repeated: GGGAGUUCUACAGUCCGACGAUC … UGGAAUUCUCGGGUGUCAAGG
`UCCUGUGCUACACAUCGUAUGUACCGAAUCGGGGAAAAAGGGGUGGGGUUUUUUUGGGGAAAGUAUUAUGUUACGCCGUUCGGAUCUGCA` gave a log2 enrichment of 0.712.
`UUCCUCAAGUCCUGUGCUACACAUCGUAUGUACCGAAUCGUGUGUGUGUGUAAAGUAUUAUGUUACGCCGUUCGGAUCUGCACUUCCAGC` has a log2 enrichment of -0.15.
For `CCUGUGCUACACAUCGUAUGUACCGAAUCGGGGAAAAAAAGGGGAAAGGGGUUUUUGGGGAAAGUAUUAUGUUACGCCGUUCGGAUCUGC`, the log2 enrichment was 0.298.
`CAAGUCCUGUGCUACACAUCGUAUGUACCGAAUCGGAGGUUUUUUUGGAAAAAGGAAAGUAUUAUGUUACGCCGUUCGGAUCUGCACUUC` gave a log2 enrichment of -0.824.
`GCAGGAAGUAAAAACAAAUGGAAAUGCUUCGGAUAGUGGCAGGGGUGUGGGUUGCUAAGGAAAGGGUGGGAUGGGAGUGGGUAAAGAGUU` has a log2 enrichment of 0.221.
The log2 enrichment of `UGGCCCUGGUGGCAUGCGGGGAGGAAGAGGUGGCCUCAUGGAUCGUGGUGGUCCCGGUGGAAUGUUCAGAGGUGGCCGUGGUGGAGACAU` is reported as 0.139.
For `UAACUUUAGAGGAGGAUCUGAUGGAUAUGGCAGUGGACGUGGAUUUGGGGAUGGUUAUAAUGGGUAUGGAGGAGGACCUGGAGGUGGCAA`, the log2 enrichment was 0.277.
With `UGGGAGGUGGAUUUUGUUUAUUUUUUUAGCUCAUAUCCAGGGGUGGGAAUUUUUUUUUAAUAUGUGUCAUGAAUAAAGUUGUUUUUGAAA` the log2 enrichment was 0.301.
`UCAAGUCCUGUGCUACACAUCGUAUGUACCGAAUCGGGGUUUGGUUUGGUUUGGAAAGUAUUAUGUUACGCCGUUCGGAUCUGCACUUCC` gave a log2 enrichment of 0.159.
With `GUCCUGUGCUACACAUCGUAUGUACCGAAUCGGGGUUUUUGGGGUUUUUGGGGUGGGGAAAGUAUUAUGUUACGCCGUUCGGAUCUGCAC` the log2 enrichment was 0.911.
With `UCAUUCUAUACAGCCUUUUGUUUCAUUAGGAUCAGGCAGCUAGAGACAUGAAGAGGCUUGAAGAAAAGGACAAGGAAAGAAAAAACGUAA` the log2 enrichment was -1.37.
The log2 enrichment of `GUCCUGUGCUACACAUCGUAUGUACCGAAUCGGCCCCCCGGCCCCCCGGCCCCCCGGGGAAAGUAUUAUGUUACGCCGUUCGGAUCUGCA` is reported as 0.0558.
`CCUGUGCUACACAUCGUAUGUACCGAAUCGGGAAAAAAAGGAAAAAAAGGGAAAAAAAGGAAAGUAUUAUGUUACGCCGUUCGGAUCUGC` gave a log2 enrichment of -0.682.
The log2 enrichment of `UUGCUAACUUCAAGAUAGAGCCUCCUGGACUUUUCCGUGGCCGCGGCAACCACCCCAAGAUGGGCAUGCUGAAGAGACGAAUCAUGCCCG` is reported as -0.682.

Study 2
Target: RING finger protein unkempt homolog, zinc fingers 1-6, SBP tag (UNK, Homo sapiens, UniProt Q9C0B0, residues 30-357)
UniProt Q9C0B0, sequence (30-357, looked up): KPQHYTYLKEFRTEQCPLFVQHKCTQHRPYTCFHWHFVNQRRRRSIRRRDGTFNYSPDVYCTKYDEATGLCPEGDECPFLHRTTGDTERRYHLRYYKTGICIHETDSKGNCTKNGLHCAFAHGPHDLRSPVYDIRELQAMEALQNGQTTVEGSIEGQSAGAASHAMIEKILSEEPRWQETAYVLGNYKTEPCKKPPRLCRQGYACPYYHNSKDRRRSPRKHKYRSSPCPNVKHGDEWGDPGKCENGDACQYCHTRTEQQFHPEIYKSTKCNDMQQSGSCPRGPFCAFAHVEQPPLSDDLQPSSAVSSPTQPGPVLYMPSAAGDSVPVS
Method: RNA Bind-n-Seq
Form: RNA
Sample: in vitro
Tested at: 100 nM
Setting: RNA with constant flanks, vertebrate orthologous sites, ends assumed
Relative to: input RNA pool
Reading: higher = stronger binding
Shared flanks, not repeated: GGGAGUUCUACAGUCCGACGAUC … CAACAGAGGAUUGAGCAUCA
With `GUUGUGAUCCCUUUAAUAUGCACAGAAAACUCUCAAAGAAAAACCUGCGUGCAAUUGACUUAGAUGAUGCAGCUUUUCUAAGUGCCAAGUUUGGAAGACAGUUUGUACCUGGUUGGAAGC` the bound/input enrichment was 0.832 ratio.
`UUCAGGCACAACUGACUGGUUCACAGCAUUCCUUACACAGUUAUCUAUCAAAUGCAAGUGUGGUUAAUUUUCAGGAAACAAGCAGGCAGUCAUCUUUAUCCUGUAGCCCUAUUGGAGAUU` gave a bound/input enrichment of 1.16 ratio.
`GUUGUGACCCCUUUAACAUACAUAAAAAACUAGCCAAAAAGAACUUGCAUGUAAUUGAUUUAGAUGAUGCCACUUUUCUGAGUGCAAAAUUUGGCAGACAGCUUGUACCUGGUUGGAAGC` has a bound/input enrichment of 1.02 ratio.
`GGAAGUCCCCAUUGUCACUGAGAACCACCAAAUUUGACUUUCACGUUUGGUCUCAGAAUUUAGGUUCCUGCCCUGUUGUUUUUCUUUCUUUUUCUUAAAACAAACAAACAGUUUUCAGAA` gave a bound/input enrichment of 0.228 ratio.
With `GCACAUGCCGCUAUCACCAAAAGCAAACUGCCACUUCUCAAAUUUCAUUCAAAGCUGUUUCAGUGUUUCUUAUGCCCUACCCUUCCCACCUACUUUCACUGAUGAGAUAUUCUAAGUUCU` the bound/input enrichment was 1.05 ratio.
With `AACCUCCUGAACGUCUAGCUUUCAAGUUGUGGCUGUUUUAAAUACUGGUUUUAUUUUCUUUAGAGUUUUACCCUGUUUCCUAUCUUCUUCUCCCCUGUUCCCAAGGUUUGACUCAUGGGU` the bound/input enrichment was 0.92 ratio.
With `GAACCGAAACUUAUAGCAAAAGAGCCAAGCAGUAGCAGUUUUUGUAAAUGUAAAAAUAAUUAGAUCCAGACUUUGUUUCCUUCAAUUUUAAAAAUAAAAAAUACCUCAGUGCUAUGUUUU` the bound/input enrichment was 1 ratio.
`AUUUUAAAUGUAUUUAGUUAUAUUUAAUUACCUCAUUCCUGAGUUCCUUUCUCAUUAAAGUAGCUUUCAUUUCUACUACUGCUAGAAGGUUUGUGCCACUAGACACUGUUCCUAAAUUAC` gave a bound/input enrichment of 1.14 ratio.
The bound/input enrichment of `AACCCCAGUUUAUAUGUGCAUUAUUCACAUUCCUGUUUGUGUUUGGGGAAAAACGACAUUUUAGCCUUUUUUAAGGUUGUUGACUUAAUUUCCUGUUACUUGGCUGCAUGAAGUUGCCCU` is reported as 0.276 ratio.
With `CUCUAUGGGCCCCGCAGAGUUGAGAUCAUGGAAGAGGAAAGUGAACAGUAACCUUCUCUGUAGUAUUUAUGCUUAGGUGUGAAAUAAACAUUAUUUGUUGAUCACAUGUAUAAUCCGGAG` the bound/input enrichment was 0.579 ratio.
For `UGUGUGUGGGUGCAGGGUGCUCUGUACCAGUGCUCAUCAUCCCUUCAUACCAACUGUCCCUAGUUAUAGGAAUUUAAUAUUUUUAAAAGUUUUACAUUGCUGUAUAUUCAAAGAUUUGUU`, the bound/input enrichment was 0.609 ratio.

Study 3
Target: CCND3, cyclin fold, Cln2 fusion (human)
Method: yeast growth competition, sequencing
Sample: yeast
Setting: weak parent motif
Relative to: not given
Reading: higher = stronger binding
Parent: SLBP docking peptide (human); ARYKRKLLINDFG
`Y3G` — result for “normalised enrichment score”: 0.129.
`R5T` — result for “normalised enrichment score”: 0.107.
For `R2H`, “normalised enrichment score” read 0.126.
For `D11V`, “normalised enrichment score” read 0.165.
`I9A`: “normalised enrichment score” 0.143.
For `R5Y`, “normalised enrichment score” read 0.158.
`Y3H`: “normalised enrichment score” 0.159.
Under “normalised enrichment score”, `F12C` is recorded as 0.0821.
For `D11S`, “normalised enrichment score” read 0.114.
`L8A`: “normalised enrichment score” 0.193.
`L8R`: “normalised enrichment score” 0.086.
For `L8T`, “normalised enrichment score” read 0.112.
`L7N`: “normalised enrichment score” 0.23.
`Y3N` — result for “normalised enrichment score”: 0.138.
For `K6I`, “normalised enrichment score” read 0.136.
For `L7E`, “normalised enrichment score” read 0.0301.
`R2G`: “normalised enrichment score” 0.122.
`K4Y`: “normalised enrichment score” 0.126.
`G13S`: “normalised enrichment score” 0.0574.
`D11K`: “normalised enrichment score” 0.122.
`K6G` — result for “normalised enrichment score”: 0.164.
For `L8P`, “normalised enrichment score” read 0.154.
`K6M`: “normalised enrichment score” 0.129.
`A1M`: “normalised enrichment score” 0.18.
Under “normalised enrichment score”, `D11P` is recorded as 0.212.

Study 4
Target: ABI1, truncated, D143A, DHFR fusion (Arabidopsis thaliana)
Method: DHFR PCA, deep sequencing
Sample: yeast
Setting: methotrexate growth selection, single substitutions
Together with: (+)-ABA 0.11 µM
Relative to: wild-type fitted maximum
Reading: higher = stronger binding
Parent: PYL1, truncated, DHFR fusion (Arabidopsis thaliana); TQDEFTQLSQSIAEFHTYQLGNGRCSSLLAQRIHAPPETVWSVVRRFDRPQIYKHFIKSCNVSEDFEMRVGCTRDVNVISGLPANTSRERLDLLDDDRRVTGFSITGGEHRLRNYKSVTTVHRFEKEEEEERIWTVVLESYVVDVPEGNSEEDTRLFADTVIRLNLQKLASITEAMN; partner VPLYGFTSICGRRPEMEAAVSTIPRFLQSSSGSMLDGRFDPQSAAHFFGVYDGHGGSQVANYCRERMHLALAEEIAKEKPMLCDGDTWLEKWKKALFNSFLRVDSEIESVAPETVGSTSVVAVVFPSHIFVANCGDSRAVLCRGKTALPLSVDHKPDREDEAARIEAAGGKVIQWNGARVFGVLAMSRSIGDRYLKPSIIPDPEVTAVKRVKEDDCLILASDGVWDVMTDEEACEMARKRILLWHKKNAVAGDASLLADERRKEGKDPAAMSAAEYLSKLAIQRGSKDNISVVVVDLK
`L138E` — result for “relative binding score”: -5.97%.
`Q51L` — result for “relative binding score”: 0.501%.
For `V137H`, “relative binding score” read -9.43%.
`I133W`: “relative binding score” 11.9%.
`S11G` — result for “relative binding score”: 6.2%.
For `Q51K`, “relative binding score” read 1.74%.
Under “relative binding score”, `A158Q` is recorded as 16.1%.
`L138G`: “relative binding score” -1.02%.
`D97S` — result for “relative binding score”: 24.9%.
Under “relative binding score”, `E38P` is recorded as 1.88%.
`S9I`: “relative binding score” 16.8%.
`R98G`: “relative binding score” -5.68%.
`V62S`: “relative binding score” 0.744%.
Under “relative binding score”, `S140V` is recorded as 3.05%.

Study 5
Substance: PhoQ, residues 284 288 289 292 302 303 SSTLSG
Method: Sort-seq
Refers to: YFP reporter
Sample: E. coli
Setting: PhoQ-PhoP variant library
Together with: 10 µM Mg2+
Relative to: high Mg2+ state
Reading: higher = stronger signaling
PhoP, residues 12 14 15 18 19 HHYTI (Escherichia coli, UniProt P23836) — fold induction: 8.68.
The fold induction was 4.47 (PhoP, residues 12 14 15 18 19 AYFRS (Escherichia coli, UniProt P23836)).
For PhoP, residues 12 14 15 18 19 SFCSL (Escherichia coli, UniProt P23836): fold induction read 11.1.

Excerpt of the above (study 3):
`Y3H`: “normalised enrichment score” 0.159.
Under “normalised enrichment score”, `F12C` is recorded as 0.0821.
For `D11S`, “normalised enrichment score” read 0.114.
`L8A`: “normalised enrichment score” 0.193.
`L8R`: “normalised enrichment score” 0.086.
For `L8T`, “normalised enrichment score” read 0.112.
`L7N`: “normalised enrichment score” 0.23.
`Y3N` — result for “normalised enrichment score”: 0.138.
For `K6I`, “normalised enrichment score” read 0.136.
